Measurements from different studies.
Numbered parts are unrelated; each lists some results of a single study. Changes are numbered by the printed parent chain.

Block 1
Target: ABI1, truncated, D143A, DHFR fusion (Arabidopsis thaliana)
Method: DHFR PCA, deep sequencing
Sample: yeast
Notes: methotrexate growth selection, single substitutions
Added: (+)-ABA 200 µM
Baseline: wild-type fitted maximum
Reading: higher = stronger binding
Parent: PYL1, truncated, DHFR fusion (Arabidopsis thaliana); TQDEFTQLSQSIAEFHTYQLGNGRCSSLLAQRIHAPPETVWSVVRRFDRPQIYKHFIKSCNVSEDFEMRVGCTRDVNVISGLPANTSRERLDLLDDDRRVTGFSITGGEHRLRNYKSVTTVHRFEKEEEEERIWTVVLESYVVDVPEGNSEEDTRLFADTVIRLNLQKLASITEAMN; partner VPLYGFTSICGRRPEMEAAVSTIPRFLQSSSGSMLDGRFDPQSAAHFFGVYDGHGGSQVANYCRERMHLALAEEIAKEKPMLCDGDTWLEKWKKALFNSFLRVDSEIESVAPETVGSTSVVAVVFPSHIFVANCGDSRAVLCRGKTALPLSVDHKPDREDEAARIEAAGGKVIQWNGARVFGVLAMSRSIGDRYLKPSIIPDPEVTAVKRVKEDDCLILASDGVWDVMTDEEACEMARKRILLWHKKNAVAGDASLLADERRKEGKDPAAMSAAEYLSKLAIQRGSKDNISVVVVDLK
Change | relative binding score [%]
V40F | -5.38
F15P | 6.04
S104R | 66.1
D3Y | 91
R88N | 99.9
E127C | 99.7
D97R | 98.6
Q10C | 92.3
L156K | 80.7
E174D | 76.2
F47M | 3.12
C72E | 101

Block 2
Target: CCNE1, cyclin fold, Cln2 fusion (human)
Method: yeast growth competition, sequencing
Sample: yeast
Notes: strong parent motif
Baseline: not given
Reading: higher = stronger binding
Parent: INSM1 docking peptide (human); PKAIRKLHFEDEV; partner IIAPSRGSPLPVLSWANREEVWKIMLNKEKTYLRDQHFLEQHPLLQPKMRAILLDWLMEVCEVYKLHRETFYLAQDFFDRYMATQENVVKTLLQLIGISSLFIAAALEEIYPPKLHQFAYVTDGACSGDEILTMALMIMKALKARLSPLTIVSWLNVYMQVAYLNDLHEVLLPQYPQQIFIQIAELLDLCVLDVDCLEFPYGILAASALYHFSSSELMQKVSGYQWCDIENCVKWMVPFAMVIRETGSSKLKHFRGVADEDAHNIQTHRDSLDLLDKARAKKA
Change | normalised enrichment score
K2W | 2.97
L7G | 0.043
K2E | 2.64
I4P | 0.648
A3D | -0.299
K2P | 3.91
E10T | 3.34
E12R | 2.51
E12V | 3.86
E12M | 4.03
E10F | 2.89
R5S | 0.106
E12W | 3.24
K6Q | 4.75
E12P | 3.7
K6C | 2.55
H8D | 4.61
E12H | 3.73
E10H | 2.59
H8Q | 4.6
I4A | 3.67
E10N | 3.27
A3G | 2.41
K2G | 4.95
I4E | 0.627

Block 3
Target: TEF, bZIP domain (human)
Method: DHFR protein complementation
Sample: yeast
Notes: single substitutions, most at no-binding floor
Baseline: wild-type JUN-FOS pair
Reading: higher = stronger binding
Parent: JUN, bZIP domain (human); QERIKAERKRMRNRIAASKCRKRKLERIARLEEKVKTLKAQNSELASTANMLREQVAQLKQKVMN; partner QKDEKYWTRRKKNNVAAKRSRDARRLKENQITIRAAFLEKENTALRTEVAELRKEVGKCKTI
Change | binding fitness
R53F | -1.18 natural log
L38T | -1.54 natural log
T37A | -1.25 natural log
L38I | -1.49 natural log
N42A | -1.5 natural log
A57K | -1.39 natural log
R53C | -1.43 natural log
R53T | -1.51 natural log
A29I | -1.47 natural log
E33V | -1.32 natural log
Q55I | -1.36 natural log
S43P | -1.51 natural log
S43R | -1.44 natural log
E54S | -1.45 natural log
L38R | -1.47 natural log
A40G | -1.38 natural log
Q41G | -1.55 natural log
T37E | -1.45 natural log

Block 4
Target: Sal-like protein 4, full length isoform A (SALL4, Homo sapiens, UniProt Q9UJQ4, residues 1-1053)
Chain of UniProt Q9UJQ4 (whole entry, looked up): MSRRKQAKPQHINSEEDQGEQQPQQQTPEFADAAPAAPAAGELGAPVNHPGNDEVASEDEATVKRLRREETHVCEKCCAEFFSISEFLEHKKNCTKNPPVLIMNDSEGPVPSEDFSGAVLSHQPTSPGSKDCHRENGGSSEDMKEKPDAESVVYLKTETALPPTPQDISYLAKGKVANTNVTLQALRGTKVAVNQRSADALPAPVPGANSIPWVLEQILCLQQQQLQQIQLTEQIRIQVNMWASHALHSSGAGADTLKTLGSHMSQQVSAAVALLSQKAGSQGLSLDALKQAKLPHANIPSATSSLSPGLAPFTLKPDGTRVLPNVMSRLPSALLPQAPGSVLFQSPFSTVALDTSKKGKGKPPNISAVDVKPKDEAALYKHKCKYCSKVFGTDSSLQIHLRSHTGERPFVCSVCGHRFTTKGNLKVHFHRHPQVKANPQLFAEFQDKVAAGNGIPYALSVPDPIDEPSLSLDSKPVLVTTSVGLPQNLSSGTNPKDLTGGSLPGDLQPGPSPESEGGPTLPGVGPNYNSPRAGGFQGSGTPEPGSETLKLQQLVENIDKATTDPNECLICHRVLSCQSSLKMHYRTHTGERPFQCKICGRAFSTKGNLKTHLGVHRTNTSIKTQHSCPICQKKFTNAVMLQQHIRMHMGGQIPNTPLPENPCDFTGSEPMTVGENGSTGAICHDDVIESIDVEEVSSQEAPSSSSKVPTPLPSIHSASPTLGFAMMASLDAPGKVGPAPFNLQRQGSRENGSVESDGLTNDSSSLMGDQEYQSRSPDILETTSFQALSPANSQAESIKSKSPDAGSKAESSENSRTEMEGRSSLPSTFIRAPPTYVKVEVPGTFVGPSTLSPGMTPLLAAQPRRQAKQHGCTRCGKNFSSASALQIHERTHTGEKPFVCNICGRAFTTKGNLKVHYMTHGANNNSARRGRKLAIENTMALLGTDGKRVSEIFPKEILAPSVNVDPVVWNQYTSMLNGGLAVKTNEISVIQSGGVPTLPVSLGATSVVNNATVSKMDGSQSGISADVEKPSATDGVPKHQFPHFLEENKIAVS
Method: universal PBM
Form: double-stranded DNA, one strand shown
Sample: in vitro
Concentration: 600 nM
Notes: 8-mer, flanks averaged, mean of replicates
Reading: higher = stronger binding
Strand | E-score
GCATGTGA | -0.0518
CAAGTCAC | 0.0125
CACCGGGA | -0.292
CCGCCGCG | -0.336
AGGTTGTC | -0.194
AAGATTTA | 0.235
CTAAAGCA | 0.0403
AACGTGAG | 0.0867
CGGTGCGC | -0.385
AAACGGAC | -0.0888
AAAAGTAT | 0.284
CCGCGGCG | -0.256
GTACCTAC | -0.137
CCATATTA | 0.368
AAATGCCC | -0.234
TACCCCGA | -0.0994
AGCCCTAA | -0.0145
GCTTGAAA | 0.131
GAGAACTA | 0.142
CAAATTGC | 0.144
ACGGCGCG | -0.201
TAAATAAA | 0.338
CGAGGTGC | -0.147
GCGTGAGC | -0.204
ACAAGAAA | 0.223

Block 5
Target: RING finger protein unkempt homolog, zinc fingers 1-6, SBP tag (UNK, Homo sapiens, UniProt Q9C0B0, residues 30-357)
Chain of UniProt Q9C0B0 (30-357, looked up): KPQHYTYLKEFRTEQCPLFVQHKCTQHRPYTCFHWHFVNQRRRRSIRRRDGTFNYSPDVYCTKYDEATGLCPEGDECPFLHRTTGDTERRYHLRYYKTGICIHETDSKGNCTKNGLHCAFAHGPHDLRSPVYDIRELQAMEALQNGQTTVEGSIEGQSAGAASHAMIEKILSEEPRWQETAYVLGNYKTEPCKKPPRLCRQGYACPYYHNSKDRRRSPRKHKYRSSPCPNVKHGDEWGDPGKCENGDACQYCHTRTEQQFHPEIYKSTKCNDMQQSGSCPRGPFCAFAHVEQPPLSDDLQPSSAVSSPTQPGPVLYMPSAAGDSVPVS
Method: RNA Bind-n-Seq
Form: RNA
Sample: in vitro
Concentration: 100 nM
Notes: RNA with constant flanks, vertebrate orthologous sites, ends assumed
Baseline: input RNA pool
Reading: higher = stronger binding
Constant ends, left off below: GGGAGUUCUACAGUCCGACGAUC … CAACAGAGGAUUGAGCAUCA
Strand | bound/input enrichment [ratio]
AUUGGAUGUAGUGUAAAAUUAUCCAAGGCAGUGACUUCAGCUUUAUAUAUAUAUAAAAUAUAGUUAGUUUUAAAGUUACUGACAUUUAUUUAAACUUUUAGAUUGGAUUGUUUGCUAUUG | 0.568
GUGUUUUGGUACAAAGUUGUGUACCAAUACUCAUCUUCUUUACAUUAUACCAACUAUCCCUAGAAAUAGGAGUUCAAUAUUUUUCAAAAUUUUACAUUGCUGUAUAUUCAAAAUUUUAAA | 0.548
UGUUCAGCCUCUUUUAGGGAAGAGAUAAACUAGAGGGGAACUCUCUCCUUUUUUAUAAAUUAGCUCAUUUCUAAAUUAUGACCAAAAAAUAUUUUGCUAUUUCUUUCUUUAUAUGUGCAC | 1.27
AUGUGAAAAUCAUGUCUCUCAAUUGGAAAGGAAGGAGGAAAAGGUAGAUUGUAUCUACCACAGUGCAAUAGGCACAUAUUUGGUCUAAUAUUGAUGUUGCUAUUGUGACAUGCAAAUAUA | 0.624
AGCAACUCAAGGAUUGAGGACUGGUUUUACAAAUAUACCAAGUAGAUAUGGAACUAAUAAUAGAAUUGGACAACCAAGACCAUGAUGGACUCUUACUUAUUUUUAUGAGGAAUAUUGACU | 0.482
AUUUUUUAAAGUUUUUUUAAUUUAAUUUUUUCUUUUGGGGGUAAAGUUUGCUCUACCAAAUAGUGAUCGUAACAAAUUGAUCUGUUUUGGAUGUUGCUAUAGUGACAUGCAGUUAUAUAU | 0.714
UGUUUUUUUUUGCACAUGACAGUGUUUGUAUUGAGGACCUUCCAAGGAAGAGGGGUGCUAUAGCAGUGGUGCCUGGGUGCCUGGCCUCCAGUGUCCCACCUCCUUCACCACCCCACUUGG | 0.283
AUGUUCAGUCCCCUGGGCUGGGACAGAUUUUUUUAAUGUCUUGAAACUUAACUCUGCUUGUAGGAGACUUUAACCUUUUUGUCUUUUUUUUUUUUUUUUUUUUAAAAACAACCUCCACCU | 1.42

Other studies, line by line
Molecule | target or system | assay | system | conditions | scale | endpoint | result
ESYT2 (Homo sapiens, UniProt A0FGR8) | ESYT1 (Homo sapiens, UniProt Q9BSJ8) | cross-linking MS | – | hits only | – | interaction screen | cross-linked
PhoQ, residues 284 288 289 292 302 303 SSTMSV | PhoP, residues 12 14 15 18 19 VQALL (Escherichia coli, UniProt P23836) | Sort-seq, refers to: YFP reporter | E. coli | PhoQ-PhoP variant library, added: 10 µM Mg2+ | baseline: high Mg2+ state, higher = stronger signaling | fold induction | 18.8
ARCN1 (Homo sapiens, UniProt P48444) | COPB1 (Homo sapiens, UniProt P53618) | cross-linking MS | cell fractions | added: DMTMM | – | cross-linked residues | E30 to K771
NDUFA9 (Homo sapiens, UniProt Q16795) | TOPAZ1 (Homo sapiens, UniProt Q8N9V7) | cross-linking MS | cell fractions | added: DSSO | – | cross-linked residues | K370 to K76
DDB1 (Homo sapiens, UniProt Q16531) | PHIP (Homo sapiens, UniProt Q8WWQ0) | cross-linking MS | cell fractions | added: DSSO | – | cross-linked residues | K153 to K749

Some of these lines once more (block 2):
Change | normalised enrichment score
L7G | 0.043
K2E | 2.64
I4P | 0.648
A3D | -0.299
K2P | 3.91
E10T | 3.34
E12R | 2.51
E12V | 3.86
E12M | 4.03
E10F | 2.89
R5S | 0.106
E12W | 3.24
